Experimental data pooled from the literature.
Numbered parts are unrelated; each lists some results of a single study.

Series 1
Target: Centromere-binding protein 1, full length, N-terminal tag (CBF1, Saccharomyces cerevisiae, UniProt P17106, residues 1-351)
Chain of UniProt P17106 (whole entry, looked up): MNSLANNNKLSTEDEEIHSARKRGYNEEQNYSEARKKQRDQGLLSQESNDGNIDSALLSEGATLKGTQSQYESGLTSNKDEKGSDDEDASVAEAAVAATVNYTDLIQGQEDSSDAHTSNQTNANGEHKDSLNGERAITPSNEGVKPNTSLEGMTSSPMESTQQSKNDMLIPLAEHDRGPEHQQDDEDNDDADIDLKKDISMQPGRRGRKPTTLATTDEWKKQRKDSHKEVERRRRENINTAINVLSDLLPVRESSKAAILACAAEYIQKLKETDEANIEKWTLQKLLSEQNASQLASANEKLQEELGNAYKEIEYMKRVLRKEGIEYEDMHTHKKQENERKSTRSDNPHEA
Technique: protein-binding microarray
Form: double-stranded DNA, one strand shown
Medium: in vitro
Concentration: 0.8 µM
Setting: whole 60-bp probe, no competitor
Direction: higher = stronger binding
Shared flanks, not repeated: … GTCTTGATTCGCTTGACGCTGCTG
| Strand | fluorescence intensity [a.u.] |
| --- | --- |
| CTATTTCCGCAGTATCCATCATCAGTTGGAACGTTC | 509 |
| GAACCCGTTTAGAGGAAGGTGATGACTCGACTCTAG | 492 |
| CTAATCGGAAAATATCACGTTGTACGTAACAATTTC | 1120 |
| CTATAATGTGCACGTGATGTGGCGTGATGGTCCTTC | 17300 |
| CCTAACTACTATAACGTGCGGATATAGCTTCGTACA | 615 |
| GAAATTTTAATCCGTCACCATAATAAGATATTTTAG | 511 |
| GAAGTTTGAATTTCTTGCATCAGGTACTGAAGCTAG | 508 |

Series 2
Target: Sal-like protein 4, full length isoform A (SALL4, Homo sapiens, UniProt Q9UJQ4, residues 1-1053)
Chain of UniProt Q9UJQ4 (whole entry, looked up): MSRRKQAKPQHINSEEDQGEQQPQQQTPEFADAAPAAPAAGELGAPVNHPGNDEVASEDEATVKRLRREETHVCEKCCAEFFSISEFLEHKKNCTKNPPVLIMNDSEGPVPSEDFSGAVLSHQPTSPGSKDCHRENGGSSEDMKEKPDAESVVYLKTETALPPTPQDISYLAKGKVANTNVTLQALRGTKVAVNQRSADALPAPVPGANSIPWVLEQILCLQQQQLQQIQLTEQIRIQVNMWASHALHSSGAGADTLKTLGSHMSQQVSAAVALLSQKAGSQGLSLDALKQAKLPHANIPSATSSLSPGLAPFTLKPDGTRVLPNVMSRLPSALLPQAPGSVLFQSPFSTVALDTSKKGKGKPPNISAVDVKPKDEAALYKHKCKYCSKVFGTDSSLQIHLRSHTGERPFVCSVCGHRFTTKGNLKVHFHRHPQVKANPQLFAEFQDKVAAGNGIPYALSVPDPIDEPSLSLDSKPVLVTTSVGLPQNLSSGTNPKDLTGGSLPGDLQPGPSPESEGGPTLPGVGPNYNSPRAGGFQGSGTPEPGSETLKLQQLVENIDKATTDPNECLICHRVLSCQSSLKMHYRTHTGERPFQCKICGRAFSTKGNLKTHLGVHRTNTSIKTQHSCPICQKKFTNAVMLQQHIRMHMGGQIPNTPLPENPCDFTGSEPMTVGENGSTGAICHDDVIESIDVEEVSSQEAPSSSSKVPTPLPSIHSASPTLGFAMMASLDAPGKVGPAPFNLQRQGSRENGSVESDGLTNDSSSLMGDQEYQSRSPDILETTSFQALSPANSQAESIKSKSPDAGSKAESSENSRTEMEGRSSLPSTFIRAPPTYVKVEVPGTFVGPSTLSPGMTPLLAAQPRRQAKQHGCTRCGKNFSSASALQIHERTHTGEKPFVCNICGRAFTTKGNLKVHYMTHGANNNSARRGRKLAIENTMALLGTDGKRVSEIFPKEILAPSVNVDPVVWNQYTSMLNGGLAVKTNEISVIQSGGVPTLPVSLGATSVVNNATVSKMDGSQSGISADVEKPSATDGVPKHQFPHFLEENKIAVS
Technique: universal PBM
Form: double-stranded DNA, one strand shown
Medium: in vitro
Concentration: 600 nM
Setting: 8-mer, flanks averaged, mean of replicates
Direction: higher = stronger binding
| Strand | E-score |
| --- | --- |
| ATAAGGGG | 0.0294 |
| CGCCACTA | -0.188 |
| GGGTCGAA | -0.188 |
| ATCCGCCG | -0.166 |
| CACCACCC | -0.295 |

Series 3
Target: Histone acetyltransferase KAT6A, winged helix 1, GST fusion (KAT6A, Homo sapiens, UniProt Q92794, residues 1-85)
Technique: protein binding microarray
Form: double-stranded DNA, one strand shown
Medium: in vitro
Concentration: not given
Setting: 8-mer, flanks averaged, mean of 2 arrays, mostly near background
Baseline: not given
Direction: higher = stronger binding
Residues (chain): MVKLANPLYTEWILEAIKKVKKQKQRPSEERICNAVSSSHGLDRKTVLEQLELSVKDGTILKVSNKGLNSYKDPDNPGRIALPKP
| Strand | E-score |
| --- | --- |
| ACGTGCAT | -0.188 |
| CTCAGGCC | 0.00348 |
| CCGTCGTA | 0.272 |
| ATAACCGG | 0.225 |
| AGCTGTGG | -0.218 |
| CGAGATCA | 0.0396 |
| CACATCTC | -0.192 |

Further values, each from its own experiment
| Substance | target | test | test system | conditions | scale | measurement | value |
| --- | --- | --- | --- | --- | --- | --- | --- |
| PhoQ, residues 284 288 289 292 302 303 SSCCRF | PhoP, residues 12 14 15 18 19 TQAIL (Escherichia coli, UniProt P23836) | Sort-seq, item: YFP reporter | E. coli | PhoQ-PhoP variant library, together with: 10 µM Mg2+ | baseline: high Mg2+ state, higher = stronger signaling | fold induction | 20.8 |
